Published values from different studies.
Each line is one published result; not all experiments were run side by side. Numbers after ± are the reported error.
Proteasome subunit alpha type-2/Proteasome subunit alpha type-6 20S proteasome: Proteasome subunit alpha type-2/Proteasome subunit alpha type-6, 20S proteasome (Homo sapiens, UniProt P25787+P60900)
BRD4: Bromodomain-containing protein 4 (BRD4, Homo sapiens, UniProt O60885)
PIN1: Peptidyl-prolyl cis-trans isomerase NIMA-interacting 1 (PIN1, Homo sapiens, UniProt Q13526)

SMILES	target	test	system	setting	scale	quantity	value
CN(C)CCC(=O)N(c1ccc(F)cc1)c1ccc(F)cc1	Proteasome subunit alpha type-2/Proteasome subunit alpha type-6 20S proteasome	proteolysis, activator, fluorogenic peptide	purified 20S proteasome	together with: Suc-LLVY-AMC, Z-LLE-AMC, Boc-LRR-AMC		EC200	> 30 µM
Cc1cc(N2CCC(CO)(C3CC3)C2=O)cc(C(=O)NCc2cc(F)cc(-c3cnn(C)c3)c2)n1 (stereo not drawn)	Proline--tRNA ligase (Plasmodium falciparum, UniProt Q8I5R7)	thermal shift		together with: L-proline 2 mM		melting temperature	75.1 °C
COC(=O)CC1N=C(c2ccc(Cl)cc2)c2c(sc(C(=O)NCCCCCNc3cccc4c3C(=O)N(C3CCC(=O)NC3=O)C4=O)c2C)-n2c(C)nnc21 (stereo not drawn)	BRD4	degrader, TMT proteomics	MM1.S	0.1 µM, 4 h	reference: DMSO	log2 fold change	-1.99
CC(=O)C12NC(C)(C)CC1(C)C(=O)C1=C2c2c(c3c4n2C(C)(C)CC2=C4C4(CC(C)(C)NC(C)(C4)C2=O)CC3(C)C)C(=O)C(C)(C)N1 (single isomer, unassigned; (-))	OPRK1 (Homo sapiens, UniProt P41145)	agonist, cAMP	CHO	concentration not given		agonist activity	inactive
CC(C)CC(NC(=O)C(NC(=O)NC(C(=O)O)C(C)C)C1CCNC(=N)N1)C(=O)NCCCNC(C(=O)O)C(OC1OC(CN)C(O)C1O)C1OC(n2ccc(=O)[nH]c2=O)C(O)C1O (stereo not drawn)	mraY (Aquifex aeolicus, UniProt O66465, H325A)	ITC		H325A mutant		ΔS	-1.7 ± 2.2 cal/mol/K
CC(C)C[C@H](NC(=O)[C@H](CO)NC(=O)[C@H](CC(C)C)NC(=O)[C@@H]1CCCN1C(=O)CNC(=O)[C@H](Cc1ccccc1)NC(=O)[C@H](Cc1ccccc1)NC(=O)OCC1c2ccccc2-c2ccccc21)C(=O)N[C@@H](CCCNC(=N)N)C(=O)N[C@@H](CO)C(=O)N[C@@H](CCCCN)C(=O)O	MMP9 (Homo sapiens, UniProt P14780)	substrate, HPLC		500 µM, 72 h, pH 7.5, 37 °C		hydrolysis product	7%
CC(C)C[C@H](NC(=O)[C@H](CC(C)C)NC(=O)[C@H](CCCNC(=N)N)NC(=O)[C@@H](N)CS)C(=O)O	PPO3 (Agaricus bisporus, UniProt C7FF04)	enzyme activity, inhibitor		12.5 µM		remaining activity	85.7%
O=C1CSc2ccccc2N1CCC(=O)N(c1ccc(F)cc1)c1ccc(F)cc1	Proteasome subunit alpha type-2/Proteasome subunit alpha type-6 20S proteasome	proteolysis, activator, fluorogenic peptide	purified 20S proteasome	together with: Suc-LLVY-AMC, Z-LLE-AMC, Boc-LRR-AMC		EC200	> 30 µM
O=C(O)Cc1cccc(O)c1	p-hydroxyphenylacetate 3-hydroxylase, reductase component (C1-hpah, Acinetobacter baumannii, UniProt Q6Q271)	ITC		pH 7		ΔH	-18.9 ± 2.21 kcal/mol
CNc1ccccc1C(=O)O[C@H]1C[C@H](n2cnc3c(N)ncnc32)O[C@@H]1COP(=O)(O)OP(=O)(O)O	Unconventional myosin-Va (Gallus gallus, UniProt Q02440, D297C/G292C/I296C/S293C/V295G)	stopped-flow FRET		25 °C, together with: MgCl2 10 mM		dissociation rate constant	7.86 ± 0.03 s⁻¹
CCOc1cc(/C=c2\sc3n(c2=O)C(c2ccccc2OC)C(C(C)=O)=C(C)N=3)ccc1O (stereo not drawn)	Cyclin-dependent kinase 7, with cyclin H (CDK7, Homo sapiens, UniProt P50613)	binding to cyclin H, co-immunoprecipitation	HEK293T transfected	up to 20 µM		activity	inactive
CSCC[C@H](NC(=O)[C@H](CO)NC(=O)[C@@H](NC(=O)[C@H](CCC(N)=O)NC(=O)[C@@H](CCCNC(=N)N)NC(=O)[C@@H](CCCNC(=N)N)NC(=O)[C@@H](CCCCN)NC(=O)[C@@H](CCCNC(=N)N)NC(C)=O)[C@@H](C)O)C(=O)N[C@H](C(=O)N[C@@H](CC(=O)O)C(=O)N[C@@H](Cc1ccccc1)C(=O)N[C@@H](Cc1ccc(O)cc1)C(=O)N[C@@H](Cc1c[nH]cn1)C(=O)N[C@@H](CO)C(=O)N[C@H](CCCCN)C(=O)N[C@H](CCCNC(=N)N)C(=O)N[C@H](CCCNC(=N)N)C(N)=O)[C@@H](C)O	PCNA (Homo sapiens, UniProt P12004)	binding, isothermal titration calorimetry		pH 7.4, 25 °C, 400 mM NaCl, together with: p21 peptide		entropic term −TΔS	12.9 ± 0.478 kcal/mol
CCOC(=O)[C@H](CCCNC(N)=O)NC(=O)[C@H](Cc1c[nH]c2ccccc12)NC(=O)[C@@H]1CCCCN1C(=O)[C@H](Cc1ccccc1)N(C)C(=O)CCl	PIN1	ligand displacement, FP				kinact	0.00133 s⁻¹
C[C@]12CCC[C@H]1[C@@H]1CCc3cc(O)ccc3[C@H]1CC2	AKR1C1 (Homo sapiens, UniProt Q04828)	enzyme activity, inhibitor, absorbance		100 µM, pH 9		inhibition	12.5%
Cc1ncsc1-c1ccc([C@@H]2CCCCCCNC(=O)C[C@@H]3N=C(c4ccc(cc4)OCCCCCC(=O)N[C@@H](C(C)(C)C)C(=O)N4C[C@H](O)C[C@H]4C(=O)N2)c2c(sc(C)c2C)-n2c(C)nnc23)cc1	BRD4	protein degradation, degrader, immunoblotting	PC-3	24 h		hook effect onset concentration	> 60 µM
CCCC[C@H](NC(=O)CNC(=O)[C@@H]1CCCN1C(=O)CNC(=O)[C@@H]1CCCN1C(=O)CNC(=O)[C@@H]1CCCN1C(=O)CNC(=O)[C@@H]1CCCN1C(=O)CNC(=O)[C@@H]1CCCN1C(=O)CNC(=O)[C@@H]1CCCN1C(=O)CNC(=O)[C@@H]1CCCN1C(=O)CNC(=O)[C@@H]1CCCN1C(=O)CNC(=O)[C@@H]1CCCN1C(=O)[C@H](Cc1c[nH]c2ccccc12)NC(=O)[C@H](CCCNC(=N)N)NC(=O)[C@@H](Cc1ccccc1)NC(=O)[C@H](Cc1c[nH]cn1)NC(=O)[C@H](CCC(=O)O)NC(=O)[C@H](CCCC)NC(=O)[C@H](CO)NC(C)=O)C(=O)NCC(=O)N[C@@H](Cc1c[nH]c2ccccc12)C(=O)N[C@@H](CCCC)C(=O)N[C@@H](CC(=O)O)C(=O)N[C@@H](Cc1ccccc1)C(N)=O	CCKBR/MC4R (Homo sapiens, UniProt P32239+P32245)	bivalent binding	cells expressing CCK2R and MC4R	together with: Eu-DTPA-CCK-8	reference: single- over dual-expressing cells	IC50 ratio	2 fold
CC[C@H](C)[C@@H]1NC(=O)[C@H](Cc2cn(CCc3c(C)[nH]c4cc(Cl)cc(Cl)c34)nn2)NC(=O)[C@@H](CC(N)=O)NC(=O)[C@H](CCCNC(=N)N)NC(=O)[C@H](Cc2ccccc2)NC(=O)[C@@H](CC(C)C)NC(=O)[C@H](C)NC(=O)c2cc3cc(c2)C(=O)NC[C@@H](C(=O)N[C@@H](CCCCN)C(N)=O)NC(=O)[C@H](CCCNC(=N)N)NC(=O)[C@H](CCCNC(=N)N)NC(=O)[C@H](CCCNC(=N)N)NC(=O)[C@H](CCCNC(=N)N)NC(=O)[C@H](Cc2ccc4ccccc4c2)NC(=O)[C@H](Cc2ccccc2)NC(=O)[C@H](CCCCNC3=O)NC(=O)[C@H](CC(=O)O)NC1=O	PIN1	fluorescence anisotropy		concentration not given, together with: FITC-labelled peptide 100 nM		binding	no binding
Oc1c(C(Nc2nc3ccccc3s2)c2cccc(OCc3ccccc3)c2)ccc2cccnc12 (stereo not drawn)	Genome polyprotein, NS2B-NS3 protease (Dengue virus type 2, UniProt P14340)	substrate, tetrapeptide cleavage		5 µM, 37 °C, without ZnCl2		kcat	0.107 ± 0.0041 s⁻¹

Repeated from above:
SMILES	target	test	system	setting	scale	quantity	value
CC(C)C[C@H](NC(=O)[C@H](CC(C)C)NC(=O)[C@H](CCCNC(=N)N)NC(=O)[C@@H](N)CS)C(=O)O	PPO3 (Agaricus bisporus, UniProt C7FF04)	enzyme activity, inhibitor		12.5 µM		remaining activity	85.7%
O=C1CSc2ccccc2N1CCC(=O)N(c1ccc(F)cc1)c1ccc(F)cc1	Proteasome subunit alpha type-2/Proteasome subunit alpha type-6 20S proteasome	proteolysis, activator, fluorogenic peptide	purified 20S proteasome	together with: Suc-LLVY-AMC, Z-LLE-AMC, Boc-LRR-AMC		EC200	> 30 µM
